Literature values as cited in several papers.
Several values in a cell are separate wells, animals, samples, runs or records. ± gives the spread as reported.
Chain of UniProt P21918 (whole entry, looked up): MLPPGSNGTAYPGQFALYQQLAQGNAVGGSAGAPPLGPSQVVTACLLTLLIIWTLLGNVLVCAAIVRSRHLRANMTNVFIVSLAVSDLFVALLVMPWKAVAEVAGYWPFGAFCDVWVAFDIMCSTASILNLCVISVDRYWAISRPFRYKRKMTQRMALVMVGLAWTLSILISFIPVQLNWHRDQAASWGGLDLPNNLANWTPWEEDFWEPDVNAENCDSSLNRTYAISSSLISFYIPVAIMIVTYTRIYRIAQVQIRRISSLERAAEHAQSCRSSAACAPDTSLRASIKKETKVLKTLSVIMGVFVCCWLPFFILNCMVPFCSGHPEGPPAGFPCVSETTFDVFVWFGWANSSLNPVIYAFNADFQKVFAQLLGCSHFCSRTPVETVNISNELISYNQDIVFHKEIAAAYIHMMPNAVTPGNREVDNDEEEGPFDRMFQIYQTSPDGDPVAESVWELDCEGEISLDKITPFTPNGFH
Chain of UniProt P21728 (whole entry, looked up): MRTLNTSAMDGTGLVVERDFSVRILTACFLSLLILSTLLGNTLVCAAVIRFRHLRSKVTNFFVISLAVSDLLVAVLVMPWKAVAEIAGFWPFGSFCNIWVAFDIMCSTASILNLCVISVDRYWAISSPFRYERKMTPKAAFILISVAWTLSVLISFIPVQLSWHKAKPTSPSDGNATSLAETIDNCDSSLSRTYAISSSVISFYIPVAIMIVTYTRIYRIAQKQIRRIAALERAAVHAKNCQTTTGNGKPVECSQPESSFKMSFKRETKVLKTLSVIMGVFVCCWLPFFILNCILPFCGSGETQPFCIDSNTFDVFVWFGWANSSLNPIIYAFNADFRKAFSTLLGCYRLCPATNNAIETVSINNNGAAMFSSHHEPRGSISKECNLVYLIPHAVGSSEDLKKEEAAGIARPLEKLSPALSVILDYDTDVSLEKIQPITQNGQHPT

Molecule = CCCC(=O)NCCCC[C@H](NC(=O)[C@@H](NC(=O)[C@H](CCCCN)NC(=O)[C@H](CCCCN)NC(=O)[C@H](Cc1ccccc1)NC(=O)[C@H](CC(C)C)NC(=O)[C@H](CCCCN)NC(=O)[C@H](CCCCN)NC(C)=O)[C@@H](C)CC)C(=O)N[C@@H](CCCCN)C(=O)N[C@@H](Cc1ccc(O)cc1)C(=O)N[C@@H](CC(C)C)C(N)=O; test system = horse erythrocytes 5 % v/v; setting = 150 µM; measurement = hemolysis; value = 11 ± 5%
Molecule = phosphate; measurement = pKa; value = 6.5
Molecule = Nc1nc(N)nc(N)n1; assay = wet-mount and histology; test system = rat fetuses and neonates, kidney; setting = 1000 mg/kg/day to dams; measurement = kidney findings; value = negative
Molecule = Cn1c(=O)c2[nH]cnc2n(C)c1=O; test system = water; setting = hydrate; measurement = aqueous solubility; value = 0.83 log mg/mL
Molecule = CC(C)(c1ccc(O)cc1)c1ccc(O)cc1; assay = item: free compound; test system = rhesus monkey female, plasma; setting = oral, 0.4 mg/kg; measurement = dose-normalized Cmax; value = 9.88 (nmol/mL)/(mmol/kg) and ~10 (nmol/mL)/(mmol/kg)
Molecule = CC1=C(/C=C/C(C)=C/C=C/C(C)=C/C(=O)Nc2ccc(O)cc2)C(C)(C)CCC1; test system = mouse, plasma and tissues; setting = dose not given, together with: phenobarbital pretreatment; measurement = concentration decrease; value = 50%
Molecule = Cc1nc2cccc(OCC(C)(C)C(=O)NC(C)C)c2c(N)c1C(=O)O; test system = pregnant rat; setting = oral, maternal toxicity, gestation days 6 to 20, highest dose tested; measurement = NOAEL; value = 1000 mg/kg/day
Molecule = C=CC(=O)N1CCC(Oc2cc3c(Nc4ccc(Cl)c(Cl)c4F)ncnc3cc2OC)CC1; test system = advanced solid tumour patients; setting = continuous dosing; measurement = maximum tolerated dose; value = 18 mg/day
Molecule = Cc1c(COC(=O)[C@@H]2[C@H](/C=C(\Cl)C(F)(F)F)C2(C)C)cccc1-c1ccccc1 (racemic); test system = rat or mouse; setting = oral; measurement = LD50; value = 545 mg/kg
Molecule = c1ccoc1; test system = Big Blue rat; setting = dose not given, 8 weeks, micronucleus, Pig-a, Hprt, cII; measurement = genotoxicity; value = negative
Molecule = C=CCN(CC=C)CCc1c[nH]c2ccccc12; target or system = D(1A) dopamine receptor (DRD1, Homo sapiens, UniProt P21728); assay = binding; test system = cloned human receptor; setting = together with: [3H]SCH23390; measurement = Ki; value = > 10 µM
Molecule = CN[C@H](CC(C)C)C(=O)N[C@H]1C(=O)N[C@@H](CC(N)=O)C(=O)N[C@H]2C(=O)N[C@H]3C(=O)N[C@H](C(=O)N[C@H](C(=O)O)c4cc(O)cc(O)c4-c4cc3ccc4O)[C@H](O)c3ccc(c(Cl)c3)Oc3cc2cc(c3O[C@@H]2O[C@H](CO)[C@@H](O)[C@H](O)[C@H]2O[C@H]2C[C@](C)(N)[C@H](O)[C@H](C)O2)Oc2ccc(cc2Cl)[C@H]1O; test system = normal-weight adults; setting = dose not given, per ideal body weight; measurement = volume of distribution; value = 0.65 L/kg
Molecule = Clc1ccc(Cl)c(-c2c(Cl)ccc(Cl)c2Cl)c1Cl; assay = substrate; test system = human liver microsomes; measurement = Km; value = 8.8 µM
Molecule = CCOc1ccc2cc(-c3nn(CC4CCN(C)CC4)c4ncnc(N)c34)ccc2n1; test system = mouse, plasma; setting = oral, 30 mg/kg; measurement = Cmax; value = 3000 to 4000 nM
Molecule = Cc1cnc2ccc3c(nc(N(O)[C@@H]4O[C@H](C(=O)O)[C@@H](O)[C@H](O)[C@H]4O)n3C)c2n1; assay = GC-MS, item: 2-hydroxy-3,8-dimethylimidazo[4,5-f]quinoxaline; test system = human; setting = concentration not given; how to read = relative to: dose; measurement = urinary excretion of MeIQx metabolite; value = 9.4 ± 3%
Molecule = Clc1cc2c(cc1Cl)Oc1cc(Cl)c(Cl)cc1O2; test system = zebrafish embryos; setting = waterborne, 50 ppt, repeated at 4.8 and 31.2 hpf; measurement = body burden; value = ~5 ppb
Molecule = CNC(=C[N+](=O)[O-])NCCSCc1ccc(CN(C)C)o1; test system = human, plasma; setting = concentration not given, median of reported values; measurement = Cmax; value = 2120 nM
Molecule = O=S(=O)(O)C(F)(F)C(F)(F)C(F)(F)C(F)(F)C(F)(F)C(F)(F)C(F)(F)C(F)(F)F; test system = human; measurement = elimination half-life; value = 1.5 to 10 years
Molecule = CCCCCCCCCCCC[N+](C)(C)C.[Br-]; test system = air-water interface; measurement = surface partition coefficient; value = 5.5e-07 m
Molecule = ClC(Cl)(Cl)Cl; test system = rat, urine; setting = oral, 2000 mg/kg, 24 h; measurement = urinary microRNA levels; value = increased
Molecule = COc1cc(N2CCC(N3CCN(C)CC3)CC2)ccc1Nc1ncc(Cl)c(Nc2ccccc2P(C)(C)=O)n1; test system = patients with cancer; measurement = highest tolerated dose; value = 240 mg/day
Molecule = CCCCCOc1ccc(-c2cc(-c3ccc(C(=O)N[C@H]4C[C@@H](O)[C@@H](O)NC(=O)[C@@H]5[C@@H](O)[C@@H](C)CN5C(=O)[C@H]([C@H](O)CC(N)=O)NC(=O)[C@H]([C@H](O)[C@@H](O)c5ccc(O)c(OS(=O)(=O)O)c5)NC(=O)[C@@H]5C[C@@H](O)CN5C(=O)[C@H]([C@@H](C)O)NC4=O)cc3)no2)cc1; test system = adults with invasive candidiasis; setting = 100 mg daily, steady state; measurement = clearance; value = 1170 mL/h
Molecule = ClC=C(Cl)Cl; assay = item: N-acetylcysteine conjugates; test system = Wistar rat, male, urine; setting = intraperitoneal, 400 mg/kg; how to read = relative to: dose; measurement = glutathione conjugation; value = 0.0026%
Molecule = O[C@@H]1[C@@H]2OP(O)(=S)OC[C@H]2O[C@H]1n1cnc2cc(Cl)c(Cl)cc21 (single isomer, unassigned); test system = methanol/water; measurement = log Kw; value = 2.99
Molecule = CCCC(CCC)C(=O)O; test system = human, plasma; setting = total concentration, therapeutic range; measurement = therapeutic plasma concentration; value = 50 to 150 µg/mL
Molecule = O=c1c(O)c(-c2cc(O)c(O)c(O)c2)oc2cc(O)cc(O)c12; test system = octanol-water; measurement = logP; value = 2.94
Molecule = CNCCN1C(=O)[C@H](OC(C)=O)[C@H](c2ccc(OC)cc2)Sc2ccccc21; test system = juvenile Chinook salmon, whole body wet weight; setting = concentration not given, field-collected; measurement = maximum whole-body concentration; value = 1.5 ng/g
Molecule = CC(C)C[C@H](NC(=O)[C@H](Cc1ccccc1)NC(=O)c1cnccn1)B(O)O; test system = children with refractory solid tumours; setting = intravenous; measurement = maximum tolerated dose; value = 1.2 mg/m²
Molecule = CC(C)(C)C(O)/C=C/c1ccc2c(c1)OCO2 (stereo not drawn); test system = human, plasma; setting = total concentration, therapeutic range; measurement = therapeutic plasma concentration; value = 8 to 16 µg/mL
Molecule = CC(=O)O[C@H]1Cc2ccccc2N(C(N)=O)c2ccccc21; assay = motor impairment, rotarod test; test system = mouse; setting = 15 rpm for 3 min; measurement = TD50; value = 314 mg/kg
Molecule = CC1(C)CCC(CN2CCN(c3ccc(C(=O)NS(=O)(=O)c4ccc(NCC5CCOCC5)c([N+](=O)[O-])c4)c(Oc4cnc5[nH]ccc5c4)c3)CC2)=C(c2ccc(Cl)cc2)C1; test system = human patients; setting = 400 mg once daily, steady state, together with: ivosidenib 500 mg once daily 14 days; how to read = relative to: with over without ivosidenib; measurement = AUC ratio; value = 0.36
Molecule = O=C(O)C(F)(F)C(F)(F)C(F)(F)C(F)(F)C(F)(F)C(F)(F)C(F)(F)F; test system = residents near PFAS plants, serum; setting = concentration not given; measurement = serum concentration; value = 80 ng/mL
Molecule = O=C1NC(=O)C(c2ccccc2)(c2ccccc2)N1; test system = rabbit, plasma; measurement = Cmax at LOAEL; value = ~135000 nM
Molecule = Cc1cc2c(C(C)C)c(O)c(O)c(C=O)c2c(O)c1-c1c(C)cc2c(C(C)C)c(O)c(O)c(C=O)c2c1O; test system = plasma; setting = concentration not given; measurement = Cmax; value = 1990 nM
Molecule = C=CCN(CC=C)CCc1c[nH]c2ccc(F)cc12; target or system = D(1B) dopamine receptor (DRD5, Homo sapiens, UniProt P21918); measurement = Ki; value = > 10 µM
Molecule = CC1CO1 (stereo not drawn); assay = spontaneous hydrolysis; test system = potassium phosphate buffer; setting = pH 7.4, 37 °C; measurement = half-life; value = 16 h
Molecule = CN[C@H]1C(=O)N[C@@H]2Cc3ccc(cc3)Oc3cc4cc(c3O[C@@H]3O[C@H](C(=O)O)[C@@H](O)[C@H](O)[C@H]3NC(=O)CCCCCCCCC(C)C)Oc3ccc(cc3Cl)[C@@H](O)[C@@H]3NC(=O)[C@H](NC(=O)[C@@H]4NC(=O)[C@@H](NC2=O)c2cc(cc(O)c2Cl)Oc2cc1ccc2O)c1ccc(O)c(c1)-c1c(O[C@H]2O[C@H](CO)[C@@H](O)[C@H](O)[C@@H]2O)cc(O)cc1[C@@H](C(=O)NCCCN(C)C)NC3=O; test system = healthy humans; setting = 1000 mg single dose, mean; measurement = terminal half-life; value = 346 h
Molecule = CN(C)C(=O)C(CCN1CCC(O)(c2ccc(Cl)cc2)CC1)(c1ccccc1)c1ccccc1; measurement = pKa; value = 8.7
Molecule = Cc1ccc(OCC(=O)N(Cc2cccs2)c2ccn[nH]2)cc1; test system = pregnant Crl:CD(SD) rats; setting = oral gavage; measurement = NOAEL; value = 1000 mg/kg/day
Molecule = CCCCCCCCCCCCCCCC(=O)NCCCC[C@H](NC(=O)[C@H](CCCCN)NC(=O)[C@H](CCCCN)NC(=O)[C@@H]1CCCN1C(=O)CNC(=O)[C@H](CC(C)C)NC(=O)[C@H](CC(C)C)NC(=O)[C@H](Cc1ccc(O)cc1)NC(=O)CNC(=O)[C@H](C)NC(=O)[C@H](CO)NC(=O)[C@H](CC(N)=O)NC(=O)[C@H](CC(C)C)NC(=O)[C@@H](NC(=O)[C@H](Cc1c[nH]c2ccccc12)NC(=O)CNC)[C@@H](C)O)C(=O)N[C@@H](CCCCN)C(N)=O; assay = reversed-phase HPLC diphenyl column; setting = water/acetonitrile gradient with TFA; measurement = HPLC retention time; value = 25.84 ± 0.1 min
Molecule = CC[C@H](C)[C@H](NC(=O)[C@H](CCCCN)NC(=O)[C@H](CCCCN)NC(=O)[C@H](Cc1c[nH]cn1)NC(=O)[C@H](CC(C)C)NC(=O)[C@H](CCCCN)NC(=O)[C@@H](N)CCCCN)C(=O)N[C@@H](CC(C)C)C(=O)N[C@@H](CCCCN)C(=O)N[C@H](C(=O)N[C@@H](CC(C)C)C(N)=O)C(C)C; test system = horse erythrocytes 5 % v/v; setting = 150 µM; measurement = hemolysis; value = 0 ± 1.1%
Molecule = [CH3][Hg][Cl]; test system = rat, perinatal exposure, brain and blood; setting = 1 mg/kg daily; measurement = mercury level; value = ~5 µM

For quick reference, copied from above:
Molecule = CCCC(=O)NCCCC[C@H](NC(=O)[C@@H](NC(=O)[C@H](CCCCN)NC(=O)[C@H](CCCCN)NC(=O)[C@H](Cc1ccccc1)NC(=O)[C@H](CC(C)C)NC(=O)[C@H](CCCCN)NC(=O)[C@H](CCCCN)NC(C)=O)[C@@H](C)CC)C(=O)N[C@@H](CCCCN)C(=O)N[C@@H](Cc1ccc(O)cc1)C(=O)N[C@@H](CC(C)C)C(N)=O; test system = horse erythrocytes 5 % v/v; setting = 150 µM; measurement = hemolysis; value = 11 ± 5%
Molecule = phosphate; measurement = pKa; value = 6.5
Molecule = Nc1nc(N)nc(N)n1; assay = wet-mount and histology; test system = rat fetuses and neonates, kidney; setting = 1000 mg/kg/day to dams; measurement = kidney findings; value = negative
Molecule = Cn1c(=O)c2[nH]cnc2n(C)c1=O; test system = water; setting = hydrate; measurement = aqueous solubility; value = 0.83 log mg/mL
Molecule = CC(C)(c1ccc(O)cc1)c1ccc(O)cc1; assay = item: free compound; test system = rhesus monkey female, plasma; setting = oral, 0.4 mg/kg; measurement = dose-normalized Cmax; value = 9.88 (nmol/mL)/(mmol/kg) and ~10 (nmol/mL)/(mmol/kg)
Molecule = CC1=C(/C=C/C(C)=C/C=C/C(C)=C/C(=O)Nc2ccc(O)cc2)C(C)(C)CCC1; test system = mouse, plasma and tissues; setting = dose not given, together with: phenobarbital pretreatment; measurement = concentration decrease; value = 50%
